# Published values from different studies.
# Parts stem from different laboratories: compare values within a part only.
# UniProt P10721, sequence (whole entry, unmodified, looked up): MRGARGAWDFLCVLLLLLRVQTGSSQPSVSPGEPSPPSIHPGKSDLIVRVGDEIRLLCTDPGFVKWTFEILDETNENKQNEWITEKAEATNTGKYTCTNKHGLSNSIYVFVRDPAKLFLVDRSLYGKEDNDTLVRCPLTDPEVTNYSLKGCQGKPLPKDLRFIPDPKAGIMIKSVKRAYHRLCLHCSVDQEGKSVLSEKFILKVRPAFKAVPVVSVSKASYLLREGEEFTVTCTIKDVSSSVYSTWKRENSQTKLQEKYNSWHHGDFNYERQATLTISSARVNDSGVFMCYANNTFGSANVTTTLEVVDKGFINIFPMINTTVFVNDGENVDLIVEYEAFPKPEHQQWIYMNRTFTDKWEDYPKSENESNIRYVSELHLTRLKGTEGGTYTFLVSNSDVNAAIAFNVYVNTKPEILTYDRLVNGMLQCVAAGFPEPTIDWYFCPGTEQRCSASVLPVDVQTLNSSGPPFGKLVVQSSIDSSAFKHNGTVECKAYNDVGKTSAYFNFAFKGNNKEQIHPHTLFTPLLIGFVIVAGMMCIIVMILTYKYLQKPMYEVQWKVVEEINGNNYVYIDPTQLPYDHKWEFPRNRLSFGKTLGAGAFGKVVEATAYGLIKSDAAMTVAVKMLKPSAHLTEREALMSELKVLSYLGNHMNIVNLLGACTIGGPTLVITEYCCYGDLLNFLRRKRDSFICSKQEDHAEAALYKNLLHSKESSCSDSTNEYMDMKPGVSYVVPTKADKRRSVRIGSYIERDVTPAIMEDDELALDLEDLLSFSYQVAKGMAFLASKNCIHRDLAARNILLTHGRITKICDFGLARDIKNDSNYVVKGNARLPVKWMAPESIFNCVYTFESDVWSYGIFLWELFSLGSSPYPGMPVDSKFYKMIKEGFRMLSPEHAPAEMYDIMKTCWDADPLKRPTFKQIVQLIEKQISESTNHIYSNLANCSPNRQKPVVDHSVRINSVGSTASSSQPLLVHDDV
# UniProt Q15418, sequence (whole entry, looked up): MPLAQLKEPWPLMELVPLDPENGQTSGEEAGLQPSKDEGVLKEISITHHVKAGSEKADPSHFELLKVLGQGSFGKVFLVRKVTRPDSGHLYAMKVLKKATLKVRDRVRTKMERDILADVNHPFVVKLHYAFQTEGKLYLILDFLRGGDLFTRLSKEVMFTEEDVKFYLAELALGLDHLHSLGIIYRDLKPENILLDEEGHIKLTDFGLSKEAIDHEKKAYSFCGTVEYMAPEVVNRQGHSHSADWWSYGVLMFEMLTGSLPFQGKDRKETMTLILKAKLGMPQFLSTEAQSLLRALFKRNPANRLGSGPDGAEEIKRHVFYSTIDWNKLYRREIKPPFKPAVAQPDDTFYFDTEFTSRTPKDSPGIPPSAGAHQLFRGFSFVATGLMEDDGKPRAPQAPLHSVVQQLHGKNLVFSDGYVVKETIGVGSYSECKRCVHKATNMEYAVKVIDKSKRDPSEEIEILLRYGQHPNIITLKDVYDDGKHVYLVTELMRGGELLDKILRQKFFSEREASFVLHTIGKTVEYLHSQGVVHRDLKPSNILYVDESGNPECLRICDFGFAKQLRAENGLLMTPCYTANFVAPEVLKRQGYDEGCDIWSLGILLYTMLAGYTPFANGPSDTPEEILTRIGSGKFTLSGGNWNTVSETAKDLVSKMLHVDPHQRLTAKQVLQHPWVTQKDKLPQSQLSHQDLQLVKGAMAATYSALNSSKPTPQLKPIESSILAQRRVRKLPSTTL
# UniProt Q9NRH2, sequence (whole entry, looked up): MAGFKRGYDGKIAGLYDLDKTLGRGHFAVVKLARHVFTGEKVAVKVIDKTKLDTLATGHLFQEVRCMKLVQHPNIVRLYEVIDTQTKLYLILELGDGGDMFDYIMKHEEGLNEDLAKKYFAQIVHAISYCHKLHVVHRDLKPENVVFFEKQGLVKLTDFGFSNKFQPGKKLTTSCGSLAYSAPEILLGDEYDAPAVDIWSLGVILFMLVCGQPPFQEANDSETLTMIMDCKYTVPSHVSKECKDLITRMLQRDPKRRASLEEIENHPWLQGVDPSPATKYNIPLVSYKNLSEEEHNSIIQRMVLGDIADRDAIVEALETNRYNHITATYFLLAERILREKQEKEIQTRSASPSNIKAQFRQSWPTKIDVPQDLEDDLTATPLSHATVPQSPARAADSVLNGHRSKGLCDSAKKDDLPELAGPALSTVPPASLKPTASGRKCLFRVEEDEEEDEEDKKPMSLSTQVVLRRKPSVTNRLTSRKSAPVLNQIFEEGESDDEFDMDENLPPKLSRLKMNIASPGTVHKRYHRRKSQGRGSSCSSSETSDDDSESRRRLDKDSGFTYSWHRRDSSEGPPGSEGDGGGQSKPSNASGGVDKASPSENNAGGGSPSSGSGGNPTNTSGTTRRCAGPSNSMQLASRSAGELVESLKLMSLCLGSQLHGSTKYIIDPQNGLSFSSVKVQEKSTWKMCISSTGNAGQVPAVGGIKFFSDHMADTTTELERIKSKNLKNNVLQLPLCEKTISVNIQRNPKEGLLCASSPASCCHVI
# UniProt O95819, sequence (whole entry, looked up): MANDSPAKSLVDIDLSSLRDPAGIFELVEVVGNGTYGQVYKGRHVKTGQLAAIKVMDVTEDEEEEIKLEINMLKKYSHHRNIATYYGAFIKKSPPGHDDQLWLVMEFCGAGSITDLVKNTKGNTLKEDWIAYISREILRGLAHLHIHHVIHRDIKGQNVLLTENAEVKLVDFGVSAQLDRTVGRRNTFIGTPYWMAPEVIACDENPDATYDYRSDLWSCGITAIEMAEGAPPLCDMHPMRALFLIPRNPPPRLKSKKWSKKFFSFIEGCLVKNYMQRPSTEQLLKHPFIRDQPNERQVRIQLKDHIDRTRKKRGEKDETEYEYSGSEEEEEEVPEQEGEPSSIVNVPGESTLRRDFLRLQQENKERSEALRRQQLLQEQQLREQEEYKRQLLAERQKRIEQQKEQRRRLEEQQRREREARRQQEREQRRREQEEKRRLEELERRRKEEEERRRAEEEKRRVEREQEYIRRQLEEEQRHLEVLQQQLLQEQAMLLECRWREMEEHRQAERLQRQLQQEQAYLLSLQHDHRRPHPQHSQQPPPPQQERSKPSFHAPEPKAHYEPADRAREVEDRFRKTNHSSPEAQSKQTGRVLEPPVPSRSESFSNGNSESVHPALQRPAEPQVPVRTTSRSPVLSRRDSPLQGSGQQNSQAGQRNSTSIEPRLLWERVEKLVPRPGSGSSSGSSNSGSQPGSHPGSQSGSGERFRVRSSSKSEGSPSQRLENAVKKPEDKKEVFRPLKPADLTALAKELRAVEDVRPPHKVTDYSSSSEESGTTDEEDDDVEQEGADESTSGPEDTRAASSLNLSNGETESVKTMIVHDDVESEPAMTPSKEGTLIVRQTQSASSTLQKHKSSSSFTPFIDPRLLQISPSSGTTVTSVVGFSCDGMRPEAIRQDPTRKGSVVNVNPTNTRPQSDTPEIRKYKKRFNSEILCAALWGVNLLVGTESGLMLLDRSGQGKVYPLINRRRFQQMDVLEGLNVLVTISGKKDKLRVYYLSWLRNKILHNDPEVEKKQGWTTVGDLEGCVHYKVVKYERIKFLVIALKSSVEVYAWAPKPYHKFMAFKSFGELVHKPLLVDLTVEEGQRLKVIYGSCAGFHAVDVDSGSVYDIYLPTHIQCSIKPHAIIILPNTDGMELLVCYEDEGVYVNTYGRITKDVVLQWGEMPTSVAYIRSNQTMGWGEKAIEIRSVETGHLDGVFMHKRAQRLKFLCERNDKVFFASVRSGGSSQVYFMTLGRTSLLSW
# UniProt Q15759, sequence (whole entry, looked up): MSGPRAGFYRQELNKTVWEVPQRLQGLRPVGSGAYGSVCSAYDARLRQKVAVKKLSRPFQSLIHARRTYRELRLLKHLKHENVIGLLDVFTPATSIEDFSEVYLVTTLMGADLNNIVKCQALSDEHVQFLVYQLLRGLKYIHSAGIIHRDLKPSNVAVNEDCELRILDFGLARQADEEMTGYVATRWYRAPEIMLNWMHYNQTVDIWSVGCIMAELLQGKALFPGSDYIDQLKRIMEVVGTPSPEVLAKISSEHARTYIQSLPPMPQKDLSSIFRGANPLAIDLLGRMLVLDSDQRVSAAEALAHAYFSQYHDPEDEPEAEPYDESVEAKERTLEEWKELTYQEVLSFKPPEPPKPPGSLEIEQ
# UniProt P49137, sequence (whole entry, looked up): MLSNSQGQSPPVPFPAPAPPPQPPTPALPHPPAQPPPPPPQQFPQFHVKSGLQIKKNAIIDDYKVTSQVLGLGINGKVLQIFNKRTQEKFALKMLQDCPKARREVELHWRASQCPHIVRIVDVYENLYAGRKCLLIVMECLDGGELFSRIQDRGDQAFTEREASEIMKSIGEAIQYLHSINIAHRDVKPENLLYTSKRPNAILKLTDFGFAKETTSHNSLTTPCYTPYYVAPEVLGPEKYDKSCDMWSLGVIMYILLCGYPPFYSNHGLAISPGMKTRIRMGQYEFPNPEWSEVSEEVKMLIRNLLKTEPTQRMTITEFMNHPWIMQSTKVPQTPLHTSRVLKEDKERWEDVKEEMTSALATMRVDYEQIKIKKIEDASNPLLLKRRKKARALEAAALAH

# Series 1
# SMILES: CO[C@@H]1[C@H](N(C)C(=O)c2ccccc2)C[C@H]2O[C@]1(C)n1c3ccccc3c3c4c(c5c6ccccc6n2c5c31)C(=O)NC4
# Action: inhibitor
# Concentration: 1 µM
target,assay,inhibition
"Cyclin-dependent kinase-like 3 (CDKL3, Homo sapiens, UniProt Q8IVW4)",enzyme activity,0%
"Transient receptor potential cation channel subfamily M member 6 (TRPM6, Homo sapiens, UniProt Q9BX84)",,4%
"Mitogen-activated protein kinase 4 (MAPK4, Homo sapiens, UniProt P31152)",enzyme activity,0%
"Tyrosine-protein kinase ITK/TSK (ITK, Homo sapiens, UniProt Q08881)",enzyme activity,0%
"MAP/microtubule affinity-regulating kinase 4 (MARK4, Homo sapiens, UniProt Q96L34)",enzyme activity,84%
"SNF-related serine/threonine-protein kinase (SNRK, Homo sapiens, UniProt Q9NRH2)",enzyme activity,6%
"Serine/threonine-protein kinase MRCK gamma (CDC42BPG, Homo sapiens, UniProt Q6DT37)",enzyme activity,2%
"Ephrin type-A receptor 7 (EPHA7, Homo sapiens, UniProt Q15375)",enzyme activity,6%
"Ephrin type-B receptor 4 (EPHB4, Homo sapiens, UniProt P54760)",enzyme activity,0%
"Membrane-associated tyrosine- and threonine-specific cdc2-inhibitory kinase (PKMYT1, Homo sapiens, UniProt Q99640)",enzyme activity,14%
"Activin receptor type-2A (ACVR2A, Homo sapiens, UniProt P27037)",enzyme activity,0%
"Homeodomain-interacting protein kinase 1 (HIPK1, Homo sapiens, UniProt Q86Z02)",enzyme activity,45%
"Phosphatidylinositol 3-kinase C2 domain-containing subunit gamma (PIK3C2G, Homo sapiens, UniProt O75747)",enzyme activity,32%
"Serine/threonine-protein kinase WNK4 (WNK4, Homo sapiens, UniProt Q96J92)",enzyme activity,5%
"Mitogen-activated protein kinase kinase kinase 19 (MAP3K19, Homo sapiens, UniProt Q56UN5)",enzyme activity,98%

# Series 2
# Target: Megakaryocyte-associated tyrosine-protein kinase (MATK, Homo sapiens, UniProt P42679)
# Read-out: enzyme activity
# Action: inhibitor
# Concentration: 0.5 µM
# Reference: control
# Construct (P42679 1-507): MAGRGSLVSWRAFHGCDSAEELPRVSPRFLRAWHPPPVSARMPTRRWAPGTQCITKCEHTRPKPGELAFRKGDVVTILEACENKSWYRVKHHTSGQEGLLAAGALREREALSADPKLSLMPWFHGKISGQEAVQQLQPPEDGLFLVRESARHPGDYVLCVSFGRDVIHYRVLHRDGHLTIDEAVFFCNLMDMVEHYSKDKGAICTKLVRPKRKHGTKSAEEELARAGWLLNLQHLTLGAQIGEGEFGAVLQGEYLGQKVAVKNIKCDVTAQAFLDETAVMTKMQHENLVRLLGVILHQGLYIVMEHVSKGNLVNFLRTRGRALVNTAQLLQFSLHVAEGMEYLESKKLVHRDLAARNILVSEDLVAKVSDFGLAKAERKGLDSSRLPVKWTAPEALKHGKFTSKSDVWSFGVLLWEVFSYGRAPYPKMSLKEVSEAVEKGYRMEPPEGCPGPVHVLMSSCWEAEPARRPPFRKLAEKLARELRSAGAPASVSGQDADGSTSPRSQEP
SMILES,remaining activity
O=C(O)/C=C/c1cc(Br)c(Br)c(Br)c1Br,87.2%
NC(=O)c1cccc(-c2cc(Nc3ccc(OC(F)(F)F)cc3)ncn2)c1,100%
N#CC(c1ccnc(NCCc2cccnc2)n1)c1nc2ccccc2s1 (centres unmarked),89.8%
N#C/C(=C(/N)SC1C=CC=CC1)c1cccc(C(O)c2ccncc2)c1 (centres unmarked),87.9%
CC(C)n1cnc2c(Nc3cccc(Cl)c3)nc(NCCO)nc21,93.3%
O=Nc1c(-c2c(O)[nH]c3ccccc23)[nH]c2ccccc12,98%
Clc1ccc(Nc2nnc(Cc3ccncc3)c3ccccc23)cc1,78.1%
O=C1NC(=O)/C(=C/c2ccc3c(c2)OC(F)(F)O3)S1,93.2%
CCCCc1c(-c2ccc(O)cc2)[nH]c2nccnc12,109%
COc1cc2c(N3CCN(C(=O)Nc4ccc(OC(C)C)cc4)CC3)ncnc2cc1OCCCN1CCCCC1,79.4%
CC(C)N(CCC(=O)c1ccc2ccccc2c1)Cc1ccccc1,80.7%
CC(C)(C)c1nc2c3cc[nH]c(=O)c3c3cc(F)ccc3c2[nH]1,102%
CNc1cc2c(Nc3cccc(Br)c3)ncnc2cn1,88%
O=c1c(-c2ccc(F)cc2)c(-c2ccncc2)[nH]n1-c1ccc(Cl)cc1,86%
C[C@@H](N)[C@H]1CC[C@H](C(=O)Nc2ccncc2)CC1,96%
c1cc(-c2cnn3cc(-c4ccc(OCCN5CCCCC5)cc4)cnc23)ccn1,104%
Nc1nc(Nc2ccc(S(N)(=O)=O)cc2)nn1C(=S)Nc1c(F)cccc1F,133%
NC(=O)c1ccc(-c2nc(-c3ccc4c(c3)OCCO4)c(-c3ccccn3)[nH]2)cc1,91.4%
O=C(c1ccccc1)c1ccc(N2CCOCC2)cc1O,92.5%
COc1cc2c(Nc3ccc(Br)cc3F)ncnc2cc1OCC1CCN(C)CC1,101%
FC(F)(F)c1ccc(/C=C/c2nc(COc3ccc(CCCCn4ccnn4)cc3)co2)cc1,95%
CCN(CC)CCCCN1c2ccccc2Oc2ccc(Cl)cc21,99.9%
O=C1c2ccccc2-c2nc3nnnn3nc21,99.7%

# Series 3
# Target: Calcium/calmodulin-dependent protein kinase type II subunit alpha (CAMK2A, Homo sapiens, UniProt Q9UQM7)
# UniProt Q9UQM7, sequence (whole entry, looked up): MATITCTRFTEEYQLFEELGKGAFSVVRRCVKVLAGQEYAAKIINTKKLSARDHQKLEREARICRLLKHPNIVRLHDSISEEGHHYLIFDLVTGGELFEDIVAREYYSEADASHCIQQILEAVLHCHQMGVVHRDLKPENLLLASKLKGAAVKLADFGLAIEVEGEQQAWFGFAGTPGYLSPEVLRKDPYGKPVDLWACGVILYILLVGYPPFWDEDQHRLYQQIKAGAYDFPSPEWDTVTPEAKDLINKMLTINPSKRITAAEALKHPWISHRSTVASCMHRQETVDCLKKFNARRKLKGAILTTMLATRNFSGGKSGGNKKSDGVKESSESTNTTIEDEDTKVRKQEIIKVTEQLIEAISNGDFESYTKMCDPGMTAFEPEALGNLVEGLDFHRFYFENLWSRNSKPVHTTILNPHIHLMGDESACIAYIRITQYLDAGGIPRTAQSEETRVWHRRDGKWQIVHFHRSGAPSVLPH
# Read-out: enzyme activity
# Action: inhibitor
# Concentration: 10 µM
SMILES,inhibition
CC(C)C12CCC(C)(CC1)O2,1%
CC(C)CN(C[C@@H](O)[C@H](Cc1ccccc1)NC(=O)O[C@H]1CCOC1)S(=O)(=O)c1ccc(N)cc1,-7%
NC(=O)NC(CC(=O)O)C(=O)O (racemic),1%
N=C(N)NC(=O)Cc1c(Cl)cccc1Cl,-9%
C[C@H]1C[C@H]2[C@@H]3CCC4=CC(=O)C=C[C@]4(C)[C@@]3(Cl)[C@@H](O)C[C@]2(C)[C@@]1(O)C(=O)CO,-6%
C=CCc1ccccc1OCC(O)CNC(C)C (centres unmarked),1%
O=C1CC2(CCCC2)CC(=O)N1CCCCN1CCN(c2ncccn2)CC1,-4%
CC(C)(C)NC[C@H](O)COc1ccccc1C1CCCC1,6%
CS(C)(=O)=O,-14%
C[C@@H](O)[C@H]1C(=O)N2C(C(=O)O)=C(S[C@@H]3CN[C@H](C(=O)N(C)C)C3)[C@H](C)[C@H]12,-20%
CC(=O)O[C@@H](C[C@@H](C)C1=C2C[C@H](O)[C@H]3[C@@]4(C)CCC(=O)C(C)(C)[C@@H]4CC[C@]3(C)[C@@]2(C)CC1=O)[C@H]1OC1(C)C,-28%
NC(=O)NCCC[C@H](N)C(=O)O,10%
NC[C@H]1O[C@H](O[C@H]2[C@H](O[C@@H]3O[C@H](CO)[C@@H](O)[C@H]3O)[C@@H](O)[C@H](N)C[C@@H]2N)[C@H](N)[C@@H](O)[C@@H]1O,9%
Cc1ccccc1C(=O)NCC(=O)O,5%

# Series 4
# Structure (SMILES): Cc1nc(N2CC[C@@H](O)C2)ncc1-c1cc(C(F)(F)F)cc2[nH]ncc12
# Technique: competition with immobilised ligand
# Concentration: 1 µM
target,assay,remaining binding [%]
"Mitogen-activated protein kinase 11 (MAPK11, Homo sapiens, UniProt Q15759)",binding,100
"Mast/stem cell growth factor receptor Kit (KIT, Homo sapiens, UniProt P10721, L576P)",cell-free assay,69
"Dual specificity testis-specific protein kinase 1 (TESK1, Homo sapiens, UniProt Q15569)",binding,94
"Tyrosine-protein kinase JAK3, JH1 (JAK3, Homo sapiens, UniProt P52333)",binding,77
"Calcium/calmodulin-dependent protein kinase kinase 2 (CAMKK2, Homo sapiens, UniProt Q96RR4)",binding,100
"STE20/SPS1-related proline-alanine-rich protein kinase (STK39, Homo sapiens, UniProt Q9UEW8)",binding,99
"Ribosomal protein S6 kinase alpha-1, C-terminal kinase domain (RPS6KA1, Homo sapiens, UniProt Q15418)",binding,91
"Ribosomal protein S6 kinase alpha-6, C-terminal kinase domain (RPS6KA6, Homo sapiens, UniProt Q9UK32)",binding,100
"Megakaryocyte-associated tyrosine-protein kinase (MATK, Homo sapiens, UniProt P42679)",binding,86
"Mitogen-activated protein kinase kinase kinase kinase 4 (MAP4K4, Homo sapiens, UniProt O95819)",binding,82
"Cyclin-dependent kinase 4, with cyclin D3 (CDK4, Homo sapiens, UniProt P11802)",binding,88
"Receptor tyrosine-protein kinase erbB-3 (ERBB3, Homo sapiens, UniProt P21860)",binding,100
"Mitogen-activated protein kinase kinase kinase 6 (MAP3K6, Homo sapiens, UniProt O95382)",binding,68
"Serine/threonine-protein kinase ULK1 (ULK1, Homo sapiens, UniProt O75385)",binding,76
"Ribosomal protein S6 kinase alpha-1, N-terminal kinase domain (RPS6KA1, Homo sapiens, UniProt Q15418)",binding,100
"Tyrosine-protein kinase Yes (YES1, Homo sapiens, UniProt P07947)",cell-free assay,90
"Ephrin type-B receptor 1 (EPHB1, Homo sapiens, UniProt P54762)",cell-free assay,73
"Serine/threonine-protein kinase Nek4 (NEK4, Homo sapiens, UniProt P51957)",binding,81
"Phosphatidylinositol 4-phosphate 3-kinase C2 domain-containing subunit beta (PIK3C2B, Homo sapiens, UniProt O00750)",cell-free assay,100
"Mast/stem cell growth factor receptor Kit (KIT, Homo sapiens, UniProt P10721, T670I/V559D)",cell-free assay,68
"Epidermal growth factor receptor (EGFR, Homo sapiens, UniProt P00533, G719S)",cell-free assay,100
"Tyrosine-protein kinase ABL1, non-phosphorylated (ABL1, Homo sapiens, UniProt P00519, T315I)",binding,78
"Calcium/calmodulin-dependent protein kinase type II subunit alpha (CAMK2A, Homo sapiens, UniProt Q9UQM7)",cell-free assay,100
"Fibroblast growth factor receptor 2 (FGFR2, Homo sapiens, UniProt P21802)",cell-free assay,100
"MAP kinase-activated protein kinase 2 (MAPKAPK2, Homo sapiens, UniProt P49137)",binding,95

# For quick reference, copied from above (series 1):
target,assay,inhibition
"Mitogen-activated protein kinase 4 (MAPK4, Homo sapiens, UniProt P31152)",enzyme activity,0%
"Tyrosine-protein kinase ITK/TSK (ITK, Homo sapiens, UniProt Q08881)",enzyme activity,0%
"MAP/microtubule affinity-regulating kinase 4 (MARK4, Homo sapiens, UniProt Q96L34)",enzyme activity,84%
"SNF-related serine/threonine-protein kinase (SNRK, Homo sapiens, UniProt Q9NRH2)",enzyme activity,6%
"Serine/threonine-protein kinase MRCK gamma (CDC42BPG, Homo sapiens, UniProt Q6DT37)",enzyme activity,2%
"Ephrin type-A receptor 7 (EPHA7, Homo sapiens, UniProt Q15375)",enzyme activity,6%
"Ephrin type-B receptor 4 (EPHB4, Homo sapiens, UniProt P54760)",enzyme activity,0%
"Membrane-associated tyrosine- and threonine-specific cdc2-inhibitory kinase (PKMYT1, Homo sapiens, UniProt Q99640)",enzyme activity,14%
"Activin receptor type-2A (ACVR2A, Homo sapiens, UniProt P27037)",enzyme activity,0%
"Homeodomain-interacting protein kinase 1 (HIPK1, Homo sapiens, UniProt Q86Z02)",enzyme activity,45%
"Phosphatidylinositol 3-kinase C2 domain-containing subunit gamma (PIK3C2G, Homo sapiens, UniProt O75747)",enzyme activity,32%
"Serine/threonine-protein kinase WNK4 (WNK4, Homo sapiens, UniProt Q96J92)",enzyme activity,5%
